Experimental data pooled from the literature.
A part holds a random share of what one study measured.

Series 1
Target: Sal-like protein 4, full length isoform B (SALL4, Homo sapiens, UniProt Q9UJQ4-2, residues 1-616)
Method: universal PBM
Molecule type: double-stranded DNA, one strand shown
Sample: in vitro
Tested at: not given
Setting: 8-mer, flanks averaged, mean of replicates
Direction: higher = stronger binding
The E-score of `GGGCAAGA` is reported as -0.0259.
With `GATGAGCC` the E-score was -0.253.
For `ATGGGACG`, the E-score was -0.17.
With `CGAAATTC` the E-score was 0.104.
`AAATCAAT` gave an E-score of 0.319.
With `AGTACAAG` the E-score was 0.029.

Series 2
Target: Interferon regulatory factor 7, full length, phosphomimetic (IRF7, Homo sapiens, UniProt Q92985, residues 1-503, S471D/S472D/S475D/S476D/S477D/S483D/S484D/S487D)
Method: protein-binding microarray
Molecule type: double-stranded DNA, one strand shown
Sample: in vitro
Tested at: 2200 nM top
Setting: 60-bp whole probe
With: salmon DNA 0.4 mg/ml
Relative to: random background probes
Direction: higher = stronger binding
Residues (chain): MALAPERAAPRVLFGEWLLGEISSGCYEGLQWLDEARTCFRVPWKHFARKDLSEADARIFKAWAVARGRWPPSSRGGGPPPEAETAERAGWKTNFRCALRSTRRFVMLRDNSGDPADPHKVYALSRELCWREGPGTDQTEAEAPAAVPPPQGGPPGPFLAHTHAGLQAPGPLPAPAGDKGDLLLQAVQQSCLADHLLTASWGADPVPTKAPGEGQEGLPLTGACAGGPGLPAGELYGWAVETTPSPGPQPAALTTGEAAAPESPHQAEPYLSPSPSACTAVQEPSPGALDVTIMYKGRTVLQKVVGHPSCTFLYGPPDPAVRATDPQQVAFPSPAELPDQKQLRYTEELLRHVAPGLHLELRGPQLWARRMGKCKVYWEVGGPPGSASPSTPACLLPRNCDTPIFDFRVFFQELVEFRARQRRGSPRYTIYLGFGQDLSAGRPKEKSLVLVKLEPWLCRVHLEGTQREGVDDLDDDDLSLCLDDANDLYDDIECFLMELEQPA
`GCCTAGCACGGATGAAGCGCTTCTCGAGTGGTGCTAGTCTTGATTCGCTTGACGCTGCTG` — result for “fitted relative affinity”: -0.0688 z-score.
`GCCTAGCACTTAGGTTTCGGACTGGGTTTGTGCTAGGTCTTGATTCGCTTGACGCTGCTG` — result for “fitted relative affinity”: 3.26 z-score.
`GCCTAGCACTTAGAACTAAGTATCGATTAGTGCTAGGTCTTGATTCGCTTGACGCTGCTG` — result for “fitted relative affinity”: -0.464 z-score.
`GCCTAGCACTTTGGTATCGACACTGGGTTAGTGCTAGTCTTGATTCGCTTGACGCTGCTG` — result for “fitted relative affinity”: 0.655 z-score.

Series 3
Target: Histone acetyltransferase KAT6A, winged helix 1, GST fusion (KAT6A, Homo sapiens, UniProt Q92794, residues 1-85)
Method: protein binding microarray
Molecule type: double-stranded DNA, one strand shown
Sample: in vitro
Tested at: not given
Setting: 8-mer, flanks averaged, mean of 2 arrays, mostly near background
Relative to: not given
Direction: higher = stronger binding
Target sequence (chain): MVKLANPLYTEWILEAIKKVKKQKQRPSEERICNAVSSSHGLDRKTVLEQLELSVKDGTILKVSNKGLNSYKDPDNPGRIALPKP
The E-score of `TCTCCGAA` is reported as 0.0271.
`ACCTTAAT` gave an E-score of -0.159.
`ATCCGGTG` gave an E-score of 0.137.
The E-score of `AGCTGACT` is reported as -0.126.
For `GCGAACAC`, the E-score was 0.0774.
`CATAACAC` gave an E-score of -0.216.
With `AATTGCTC` the E-score was -0.156.
With `CGACTGCA` the E-score was -0.0759.
`CAAACTTG` has an E-score of -0.113.
With `AGCGTCTC` the E-score was 0.116.
The E-score of `CCTATGAG` is reported as -0.239.
The E-score of `CGTTAAGC` is reported as 0.18.

Other studies, line by line
`PhoQ, residues 284 288 289 292 302 303 STVVAA` has a fold induction of 1.36 (PhoP, residues 12 14 15 18 19 SYFRT (Escherichia coli, UniProt P23836); Sort-seq, item: YFP reporter; E. coli; PhoQ-PhoP variant library, with: 10 µM Mg2+; relative to: high Mg2+ state, higher = stronger signaling).
The signal ratio of `AAAAAAAA (biotin)` is reported as 0.0551 (Double-stranded RNA-specific editase 1, dsRBD 2 (ADARB1, Homo sapiens, UniProt P78563, residues 215-305); protein domain microarray; RNA, in vitro; not given, poly(A) 8-mer RNA, whole probe, immobilized GST-fusion domains, most near background; relative to: GST loading signal, higher = stronger binding).
